Published values of several laboratories.
Each numbered part is a random draw from the data of one study; scales do not carry over between parts. Positions count from the first letter of the parent shown.

Series 1 — technique: universal PBM; molecule type: double-stranded DNA, one strand shown; matrix: in vitro; concentration: 600 nM; reading: higher = stronger binding; quantity: E-score
Target: Sal-like protein 4, full length isoform A (SALL4, Homo sapiens, UniProt Q9UJQ4, residues 1-1053)
Sequence of UniProt Q9UJQ4 (whole entry, looked up): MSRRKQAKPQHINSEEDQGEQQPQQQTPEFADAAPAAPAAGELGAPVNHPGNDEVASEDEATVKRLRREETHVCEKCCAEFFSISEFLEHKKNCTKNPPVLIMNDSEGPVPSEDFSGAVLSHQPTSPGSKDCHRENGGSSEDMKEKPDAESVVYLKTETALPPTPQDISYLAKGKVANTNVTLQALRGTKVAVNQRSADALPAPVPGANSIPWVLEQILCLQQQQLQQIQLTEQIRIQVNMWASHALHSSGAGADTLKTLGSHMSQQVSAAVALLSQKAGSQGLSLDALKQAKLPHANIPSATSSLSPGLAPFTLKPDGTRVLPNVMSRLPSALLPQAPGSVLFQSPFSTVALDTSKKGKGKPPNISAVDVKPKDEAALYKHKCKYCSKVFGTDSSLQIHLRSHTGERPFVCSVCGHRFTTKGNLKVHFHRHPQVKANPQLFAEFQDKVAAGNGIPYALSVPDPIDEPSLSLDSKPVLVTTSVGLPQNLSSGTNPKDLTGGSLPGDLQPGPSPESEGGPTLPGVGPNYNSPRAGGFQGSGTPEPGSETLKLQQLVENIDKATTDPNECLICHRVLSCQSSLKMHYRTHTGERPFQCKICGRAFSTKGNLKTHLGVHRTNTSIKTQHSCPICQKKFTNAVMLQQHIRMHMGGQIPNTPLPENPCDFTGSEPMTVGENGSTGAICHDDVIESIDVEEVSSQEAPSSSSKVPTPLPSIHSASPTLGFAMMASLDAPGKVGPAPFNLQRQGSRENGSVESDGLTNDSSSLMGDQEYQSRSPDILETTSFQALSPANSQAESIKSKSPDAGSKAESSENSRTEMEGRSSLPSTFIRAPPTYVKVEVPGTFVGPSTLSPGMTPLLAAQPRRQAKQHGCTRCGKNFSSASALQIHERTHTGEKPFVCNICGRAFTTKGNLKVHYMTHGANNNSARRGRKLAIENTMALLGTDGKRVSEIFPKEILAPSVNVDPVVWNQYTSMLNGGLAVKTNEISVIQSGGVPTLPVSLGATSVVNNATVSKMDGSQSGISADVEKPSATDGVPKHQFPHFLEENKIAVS
Setting: 8-mer, flanks averaged, mean of replicates
Sequence = ACAACGAG; value = 0.107
Sequence = CAAGGAGA; value = -0.022
Sequence = AACAGTGA; value = 0.0946
Sequence = CATCAGAC; value = 0.0379
Sequence = AAGCATCT; value = 0.104
Sequence = TGGTAAAA; value = 0.172
Sequence = CACAGTTA; value = 0.141
Sequence = GTACCGAA; value = -0.0358
Sequence = CGACTGTC; value = -0.128
Sequence = CCGAACCC; value = -0.365
Sequence = AGGAAATA; value = 0.324
Sequence = ATCACGCG; value = -0.025
Sequence = AGTGTAGG; value = 0.105
Sequence = TATCGAAA; value = 0.27
Sequence = AGGCTCAC; value = -0.258
Sequence = CGACGTGA; value = -0.0366

Series 2 — technique: protein binding microarray; molecule type: double-stranded DNA, one strand shown; matrix: in vitro; concentration: not given; reference: not given; reading: higher = stronger binding; quantity: E-score
Target: Histone acetyltransferase KAT6A, both winged helices, GST fusion (KAT6A, Homo sapiens, UniProt Q92794, residues 1-181)
Setting: 8-mer, flanks averaged, mean of 2 arrays, mostly near background
Target sequence (chain): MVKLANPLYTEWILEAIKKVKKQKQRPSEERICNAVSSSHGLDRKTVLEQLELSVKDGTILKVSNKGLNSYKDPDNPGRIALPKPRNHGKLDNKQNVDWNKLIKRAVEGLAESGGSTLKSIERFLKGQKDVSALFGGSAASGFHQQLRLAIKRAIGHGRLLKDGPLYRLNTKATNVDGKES
Sequence = AATTCGCC; value = 0.0524
Sequence = GGCCGATA; value = 0.228
Sequence = GTTAACCA; value = -0.0277
Sequence = CCTAAATA; value = -0.064
Sequence = AAAACAGC; value = 0.00212
Sequence = ATGACGAC; value = -0.0629
Sequence = GCCCGAGC; value = 0.129
Sequence = CAGACTAC; value = -0.151
Sequence = TCCCCCGA; value = 0.00601
Sequence = AGAGTGGA; value = -0.156
Sequence = GTGCCTAA; value = -0.0812
Sequence = TCGGTGCA; value = 0.0491
Sequence = CAGTATGC; value = 0.0245
Sequence = ATAACGCC; value = 0.0419
Sequence = GCGGTGAA; value = 0.194
Sequence = CGGAGCAA; value = -0.0275
Sequence = AAACATCA; value = -0.109
Sequence = CCCCTAAA; value = -0.149

Series 3 — target: CCND1, cyclin fold, Cln2 fusion (human); technique: yeast growth competition, sequencing; matrix: yeast; setting: strong parent motif; reference: not given; reading: higher = stronger binding; quantity: normalised enrichment score
Starting sequence: CDKN1A docking peptide (human); SKACRRLFGPVDS; partner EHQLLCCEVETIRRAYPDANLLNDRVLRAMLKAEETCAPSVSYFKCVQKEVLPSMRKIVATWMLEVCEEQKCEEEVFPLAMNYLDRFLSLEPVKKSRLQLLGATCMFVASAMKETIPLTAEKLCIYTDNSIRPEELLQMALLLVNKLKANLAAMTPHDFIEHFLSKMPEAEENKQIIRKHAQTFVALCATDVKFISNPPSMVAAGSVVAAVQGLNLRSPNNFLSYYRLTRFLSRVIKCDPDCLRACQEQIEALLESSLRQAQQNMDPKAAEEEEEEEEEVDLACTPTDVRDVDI
Variant = K2I; value = 1.42
Variant = P10Y; value = 1.16
Variant = F8T; value = -0.459
Variant = K2Y; value = 1.54
Variant = A3I; value = 0.92
Variant = K2N; value = 2.77
Variant = V11N; value = 3.69
Variant = D12M; value = 1.72
Variant = A3E; value = 0.151
Variant = L7V; value = 0.231
Variant = A3F; value = 0.459
Variant = V11G; value = 3.63
Variant = R6W; value = 0.595
Variant = D12E; value = 2.79
Variant = P10I; value = 1.24
Variant = R5W; value = 0.384

Series 4 — technique: aptamer microarray, sandwich; molecule type: DNA with 2'F-ANA; matrix: in vitro; concentration: 200 nM; added: Cy3 exosite-II aptamer, 400 nM; reading: higher = stronger binding; quantity: mean fluorescence intensity; sequence: GGTTGGTGTGGTTGG
Target: Prothrombin, mature alpha-thrombin (F2, Homo sapiens, UniProt P00734)
Setting: whole 15-mer aptamer, many near background
Modification = 2'F-ANA at 1 2 3 4 7 8 10 12 13 14 15; value = 64 a.u.
Modification = 2'F-ANA at 3 5 6 8 9 10; value = 53.1 a.u.
Modification = 2'F-ANA at 1 2 3 8 10 11 13 15; value = 64.3 a.u.
Modification = 2'F-ANA at 1 2 4 5 6 7 8 12 13; value = 82.2 a.u.
Modification = 2'F-ANA at 1 2 4 9 11 13; value = 112 a.u.
Modification = 2'F-ANA at 3 5 8 9 10 13 14; value = 50.3 a.u.
Modification = 2'F-ANA at 1 2 3 5 6 8 14; value = 46.6 a.u.
Modification = 2'F-ANA at 3 5 6 9 12 13 14; value = 58.2 a.u.
Modification = 2'F-ANA at 3 6 7 11 12 13 14; value = 505 a.u.
Modification = 2'F-ANA at 2 3 5 7 8 11 13 14 15; value = 57 a.u.
Modification = 2'F-ANA at 1 4 6 7 9 10 14; value = 43.9 a.u.
Modification = 2'F-ANA at 2 3 5 6 7 11 12 13 14; value = 56.5 a.u.
Modification = 2'F-ANA at 3 4 8 12; value = 1320 a.u.
Modification = 2'F-ANA at 2 3 7 8 9 10; value = 432 a.u.
Modification = 2'F-ANA at 1 2 3 4 6 7 9 14 15; value = 56.4 a.u.
Modification = 2'F-ANA at 1 4 5 7 10 11 13 15; value = 47.2 a.u.
Modification = 2'F-ANA at 1 2 4 6 8 11 13; value = 85.6 a.u.
Modification = 2'F-ANA at 3 8 13 14; value = 612 a.u.
Modification = 2'F-ANA at 2 3 4 11 12 14 15; value = 373 a.u.
Modification = 2'F-ANA at 2 3 5 8 10 11 12; value = 59.8 a.u.
Modification = 2'F-ANA at 1 2 3 5 8 9 12 13; value = 86.8 a.u.
Modification = 2'F-ANA at 4 7 8 10 12 14 15; value = 75.4 a.u.
Modification = 2'F-ANA at 1 2 3 4 7 8 9 12 14; value = 91.1 a.u.
Modification = 2'F-ANA at 1 2 5 6 8 12 13 14 15; value = 47.8 a.u.
Modification = 2'F-ANA at 1 3 5 8 9 11 13 14; value = 43.1 a.u.

Series 5 — technique: RNA Bind-n-Seq; molecule type: RNA; matrix: in vitro; concentration: 365 nM; reference: no-protein control; reading: higher = stronger binding; quantity: RBNS enrichment (R)
Target: RNA binding protein fox-1 homolog 2, RRM domain, GST-SBP tag (RBFOX2, Homo sapiens, UniProt O43251-10, residues 100-194)
Setting: natural RNA segment, single round, ends assumed
Target sequence (chain): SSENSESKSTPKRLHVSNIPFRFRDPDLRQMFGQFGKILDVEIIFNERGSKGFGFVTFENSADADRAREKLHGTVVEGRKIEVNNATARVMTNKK
Sequence = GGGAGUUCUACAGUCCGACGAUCCCUGAAUUGGAGAGCUUGACCUUUUGCUUGUUAUUUUGCAGUUUGAUUUUGGGCCUAAAGAUGCCAGUGCUUUUCAGCUGUGGUGUGCAUGUCAUUAACUACCCCUCUCUUGGAAUUCUCGGGUGCCAA; value = 9.8
Sequence = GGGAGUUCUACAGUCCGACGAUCACCCAUCCAGUGGACUCUGGGGCGCGGCCACAGGGGACGGGAUGAGGAGCGGGAGGGUUCCGCCACUCCAGUUUUCUCCUCUGCUUCUUUGCCUCCCUCAGAUAGAAAACUGGAAUUCUCGGGUGCCAA; value = 0.557
Sequence = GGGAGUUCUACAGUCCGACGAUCCCUGAGCCAUGUGGGAGUCGUGUGAAUGACCAAGGCAGAUGCUAGCAAGUGGUGCUUCCUUCUCAGCACGUCUCUAGGAAGCAUGGACACCCGAGUGUGGCUUUUCUCAAUGGAAUUCUCGGGUGCCAA; value = 29
Sequence = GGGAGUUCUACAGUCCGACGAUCUUAAGAUUCAUUCCUCAUUCUGUUUCUUUCCAGUGGGAGAAGAGUCCCCAUGAAAUAAGAUGAAACUGAUUCCAUGCACUAGUACAUGUAGGCUUCUCCCUUGUGCAAAGUGGAAUUCUCGGGUGCCAA; value = 0.638
Sequence = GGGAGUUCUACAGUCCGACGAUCAAUCUGUCGUCGUCUUAUACAGUGUCAGCCUCGAGUACAUUUAUUAACCUUUUGGGGCUGUCAGUUUUCCACUAGGAUUAAGAUUUUGGCCGGGCGCGGUGGCUCACGCCUGGAAUUCUCGGGUGCCAA; value = 0.585
Sequence = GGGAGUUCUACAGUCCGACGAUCGAAUUCAGCACCGCAAGGAAAUUAUGGGUAUGUGAGCCAUAAUAUGAUGGGCAGCAGGUGGCGCUGCCUUCCACCCAUGGUGAUGGAUGGUUUGGAAAGGGAAUGUUGGUUGGAAUUCUCGGGUGCCAA; value = 4.67
Sequence = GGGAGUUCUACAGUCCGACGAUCCUUUGGAAAAGUACCGUAUGUUCCUAGACCCCUUCCUUCCUUCCUUCCUUCCUUCCUUCUUUCCUUCCUUCCUUCCUUCCUUCCUUCCUUCCUUCCUUCCUUCCCUCUCCUGGAAUUCUCGGGUGCCAA; value = 1.92
Sequence = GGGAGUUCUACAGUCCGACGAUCAGUAUUGCAGCCAAAGAAUAUUUAAAUAAACGUCUUUGCUGCGCUUGCAUCCAUGCCCAGCCAAUAUACAACUGUAAAGCAAAUAUAGAAAGUCGGCUGUUGAUACGAUUUGGAAUUCUCGGGUGCCAA; value = 0.637
Sequence = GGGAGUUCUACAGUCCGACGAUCAUGGGCCACACACAGCUAGAAGUCCUCUCCCAGCUAGAAGUCCUGUCCCCACUCUCCUGGCCUGACAAGAUGAGCUCUCCUGGGACCUUGCUCUAGGGCACUCUGCCUCUUGGAAUUCUCGGGUGCCAA; value = 0.489
Sequence = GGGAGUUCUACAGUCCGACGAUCAUUCUUUUAUAUGUUUUUAAAAAAAAGCUUAAGAAACAUUGCUUUAAAAAGGAAGGAAAAAAAAUACAGCAAACCAUUGUUAAAGUAGAAGAGUUUUUAGGUUGAGAAAUUGGAAUUCUCGGGUGCCAA; value = 0.755
Sequence = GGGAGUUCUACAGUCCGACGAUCUAACACAGCUAUUAAGUGCUACCUGCCUCUCAGGCACUCUCCUCGCCCAGUUUCUGAGGUCAGACGAGUGUCUGCGAUGUCUUCCCGCACUCUAUUCCCCCAGCCUCUUUUGGAAUUCUCGGGUGCCAA; value = 0.276
Sequence = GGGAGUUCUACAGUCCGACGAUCUAUAGUUUUGAUAACCACAGUUUUAAUUCUUUUAUCUGUGCAUAAUAAAGAUAUGUAUCAAUUAUUAUUUAUGUCAUAUCUGGUCAUCACUAAACCCUCCCCUUGGUCUGUGGAAUUCUCGGGUGCCAA; value = 0.279

Some of these lines once more (series 4):
Modification = 2'F-ANA at 2 3 7 8 9 10; value = 432 a.u.
Modification = 2'F-ANA at 1 2 3 4 6 7 9 14 15; value = 56.4 a.u.
Modification = 2'F-ANA at 1 4 5 7 10 11 13 15; value = 47.2 a.u.
Modification = 2'F-ANA at 1 2 4 6 8 11 13; value = 85.6 a.u.
Modification = 2'F-ANA at 3 8 13 14; value = 612 a.u.
Modification = 2'F-ANA at 2 3 4 11 12 14 15; value = 373 a.u.
Modification = 2'F-ANA at 2 3 5 8 10 11 12; value = 59.8 a.u.
Modification = 2'F-ANA at 1 2 3 5 8 9 12 13; value = 86.8 a.u.
Modification = 2'F-ANA at 4 7 8 10 12 14 15; value = 75.4 a.u.
Modification = 2'F-ANA at 1 2 3 4 7 8 9 12 14; value = 91.1 a.u.
